Measured values of several laboratories.
Protocols differ between the studies behind these lines.
Organism: Staphylococcus aureus

With `CCCCCC[N+](C)(C)CCCCCCCCOc1cc(OCCCCCCCC[N+](C)(C)CCCCCC)cc(OCCCCCCCC[N+](C)(C)CCCCCC)c1.[Br-].[Br-].[Br-]` the MIC was 0.5 µM (CA-MRSA USA300-0114).
The MIC of `COc1c(C)c(O)c(C(=O)C=Cc2ccccc2)c(OC)c1C` is reported as 5000 µg/mL (microbial growth, broth dilution; ATCC25923).
With `COc1cc(C(=O)O)ccc1NC(=O)c1ccc(NC(=O)c2ccc(NC(=O)[C@H](Cc3c[nH]nn3)NC(=O)c3ccc(NC(=O)/C(C)=C/c4ccc(O)cc4)cc3)cc2)c(OC)c1` the MIC was 8 µg/mL (broth microdilution; ciprofloxacin-resistant).
With `CC[C@H]1OC(=O)[C@H](C)[C@@H](OC(=O)Cc2ccc3c(c2)OCO3)[C@H](C)[C@@H](O[C@@H]2O[C@H](C)C[C@H](N(C)C)[C@H]2O)[C@](C)(OC)C[C@@H](C)C(=O)[C@H](C)[C@@H](O)[C@]1(C)O` the MIC was over 64 µg/mL (ATCC 43300 MRSA).
With `CN[C@H](CC(C)C)C(=O)N[C@H]1C(=O)N[C@@H](CC(N)=O)C(=O)N[C@H]2C(=O)N[C@H]3C(=O)N[C@H](C(=O)N[C@H](C(=O)O)c4cc(O)cc(O)c4-c4cc3ccc4O)[C@H](O)c3ccc(c(Cl)c3)Oc3cc2cc(c3O[C@@H]2O[C@H](CO)[C@@H](O)[C@H](O)[C@H]2O[C@H]2C[C@](C)(N)[C@H](O)[C@H](C)O2)Oc2ccc(cc2Cl)[C@H]1O` the MIC was under 1 µM (microbial growth, broth dilution; 29213).
The MIC of `CCCCCC[N+](C)(C)CCCCOc1cc(OCCCC[N+](C)(C)CCCCCC)cc(OCCCC[N+](C)(C)CCCCCC)c1.[Br-].[Br-].[Br-]` is reported as 125 µM (HA-MRSA ATCC 33591).
With `CCCC(C)Oc1cccc(NC(=O)c2cccnc2)c1` (stereo not drawn) the MIC was 128 µg/mL (microbial growth, broth dilution; MB2865).
With `CCCCCCn1cc[n+](CCCCCCCCOc2cc(OCCCCCCCC[n+]3ccn(CCCCCC)c3)cc(OCCCCCCCC[n+]3ccn(CCCCCC)c3)c2)c1.[Br-].[Br-].[Br-]` the MIC was 1 µM (CA-MRSA USA300-0114).
`C=C1CN(S(=O)(=O)c2ccc([N+](=O)[O-])cc2)CC2Nc3c(F)cc(Br)cc3C12CCNS(=O)(=O)c1ccc(Cl)cc1` (stereo not drawn) has an MIC of over 32 µg/mL (MRSA ATCC BAA-44; compound alone).
`COc1cc(C(=O)Nc2ccc(C(=O)O)c(O)c2)ccc1NC(=O)c1ccc(NC(=O)[C@H](Cc2c[nH]nn2)NC(=O)c2ccc(NC(=O)/C(C)=C/c3ccc(O)cc3)cc2)cc1` gave an MIC of 4 µg/mL (broth microdilution; ciprofloxacin-sensitive).
With `CCCCCCCC(=O)N[C@@H](CC(N)=O)C(=O)N[C@H]1CNC(=O)[C@H](c2ccc(O)c(Cl)c2)NC(=O)[C@@H](C)NC(=O)[C@H](CC(C)C)NC(=O)CNC(=O)[C@H](c2ccc(O)cc2)NC(=O)[C@@H]([C@H](C)O)NC(=O)[C@H](c2ccc(O)cc2)NC(=O)[C@@H](CCCN)NC(=O)[C@H](Cc2ccccc2)NC(=O)[C@H]([C@@H](C)O)NC(=O)[C@@H](c2ccc(O)cc2)NC(=O)[C@H](c2ccc(O)cc2)NC(=O)[C@@H]([C@H](C)O)NC(=O)[C@@H](CCCN)NC(=O)[C@@H](c2ccc(O)cc2)NC1=O` the MIC was 2.2 µg/mL (broth microdilution; MSSA ATCC 29213).
`CN[C@H](CC(C)C)C(=O)N[C@H]1C(=O)N[C@@H](CC(N)=O)C(=O)N[C@H]2C(=O)N[C@H]3C(=O)N[C@H](C(=O)N[C@H](C(=O)O)c4cc(O)cc(O)c4-c4cc3ccc4O)[C@H](O)c3ccc(c(Cl)c3)Oc3cc2cc(c3O[C@@H]2O[C@H](CO)[C@@H](O)[C@H](O)[C@H]2O[C@H]2C[C@](C)(NCc3ccc(OCc4cn(CCCCC(=O)N[C@H](C(=O)N[C@@H](CCN)C(=O)N[C@H]5CCNC(=O)[C@H]([C@@H](C)O)NC(=O)[C@H](CCN)NC(=O)[C@H](CCN)NC(=O)[C@H](CC(C)C)NC(=O)[C@@H](CC(C)C)NC(=O)[C@H](CCN)NC5=O)[C@@H](C)O)nn4)c(OC)c3)[C@H](O)[C@H](C)O2)Oc2ccc(cc2Cl)[C@H]1O` has an MIC of 0.25 µg/mL (broth microdilution; MSSA ATCC 29213, cation-adjusted Mueller-Hinton broth; 20 to 24 h, 37 °C, 0.002% polysorbate 80).
The MIC of `CC[C@H](C)[C@H](NC(=O)[C@H](CCN)NC(=O)CCCCCCCCCCCNC(=O)CCCCCOC(=O)c1cn(C2CC2)c2cc(N3CCNCC3)c(F)cc2c1=O)C(=O)N[C@@H](CCN)C(=O)N[C@H](Cc1ccccc1)C(=O)N[C@@H](CC(C)C)C(=O)N[C@@H](CCN)C(=O)N[C@@H](C(=O)N[C@@H](CC(C)C)C(=O)N[C@@H](CO)C(N)=O)C(C)C` is reported as 5.04 µg/mL.
`CC(C)C[C@@H]1NC(=O)[C@@H](CC(C)C)NC(=O)[C@H](CCN)NC(=O)[C@@H](NC(=O)[C@H](CCN)NC(=O)[C@@H](N)[C@@H](C)O)CCNC(=O)[C@H]([C@@H](C)O)NC(=O)[C@H](CCN)NC(=O)[C@H](CCN)NC1=O` gave an MIC of over 138 µM (MRSA USA300).
The MIC of `CC[C@H]1OC(=O)[C@H](C)[C@@H](OC(=O)Cc2cccc([N+](=O)[O-])c2)[C@H](C)[C@@H](O[C@@H]2O[C@H](C)C[C@H](N(C)C)[C@H]2O)[C@](C)(OC)C[C@@H](C)C(=O)[C@H](C)[C@@H](O)[C@]1(C)O` is reported as 0.5 µg/mL (microbial growth; BAA976).
`CCCCCCn1cc[n+](CCCCCCCCCCOc2cc(OCCCCCCCCCC[n+]3ccn(CCCCCC)c3)cc(OCCCCCCCCCC[n+]3ccn(CCCCCC)c3)c2)c1.[Br-].[Br-].[Br-]` gave an MIC of 2 µM (CA-MRSA USA300-0114).
For `C#CCOc1ccc(CN[C@@]2(C)C[C@H](O[C@H]3[C@H](Oc4c5cc6cc4Oc4ccc(cc4Cl)[C@@H](O)[C@@H](NC(=O)[C@@H](CC(C)C)NC)C(=O)N[C@@H](CC(N)=O)C(=O)N[C@H]6C(=O)N[C@H]4C(=O)N[C@H](C(=O)N[C@H](C(=O)N[C@@H](CCCNC(=N)N)C(N)=O)c6cc(O)cc(O)c6-c6cc4ccc6O)[C@H](O)c4ccc(c(Cl)c4)O5)O[C@H](CO)[C@@H](O)[C@@H]3O)O[C@@H](C)[C@H]2O)cc1OC`, the MIC was 0.5 µg/mL (broth microdilution; MSSA ATCC 29213, cation-adjusted Mueller-Hinton broth; 20 to 24 h, 37 °C, 0.002% polysorbate 80).
`COc1nc(C(=O)Nc2ccc(C(=O)O)c(O)c2OC)ccc1NC(=O)c1ccc(NC(=O)[C@H](Cc2c[nH]nn2)NC(=O)c2ccc(NC(=O)/C(C)=C/c3ccc(O)cc3)cc2)cc1` gave an MIC of 2 µg/mL (broth microdilution; ciprofloxacin-resistant).
For `CC[C@H](C)[C@H](N)C1=N[C@H](C(=O)N[C@@H](CC(C)C)C(=O)N[C@H](CCC(=O)O)C(=O)N[C@H](C(=O)N[C@H]2CCCCNC(=O)[C@H](CC(N)=O)NC(=O)[C@@H](CC(=O)O)NC(=O)[C@H](Cc3c[nH]cn3)NC(=O)[C@@H](Cc3ccccc3)NC(=O)[C@H]([C@@H](C)CC)NC(=O)[C@@H](CCCN)NC2=O)[C@@H](C)CC)CS1`, the MIC was 16 µg/mL (broth microdilution; ATCC 29213, LB medium; no added Zn2+).
For `CC[C@H]1OC(=O)[C@H](C)C(=O)[C@H](C)[C@@H](O[C@@H]2O[C@H](C)C[C@H](N(C)C)[C@H]2O)[C@](C)(OC)C[C@@H](C)C(=O)[C@H](C)[C@H]2N(CCCCn3cnc(-c4cccnc4)c3)C(=O)O[C@]12C`, the MIC was 128 µg/mL (ATCC 43300 MRSA).
For `CCCCCCCCCC[N+](C)(C)CCCCCCOc1cc(OCCCCCC[N+](C)(C)CCCCCCCCCC)cc(OCCCCCC[N+](C)(C)CCCCCCCCCC)c1.[Br-].[Br-].[Br-]`, the MIC was 1 µM (CA-MRSA USA300-0114).
`CC[C@H]1OC(=O)[C@H](C)[C@@H](OC(=O)CC2CCCCC2)[C@H](C)[C@@H](O[C@@H]2O[C@H](C)C[C@H](N(C)C)[C@H]2O)[C@](C)(OC)C[C@@H](C)C(=O)[C@H](C)[C@@H](O)[C@]1(C)O` has an MIC of 4 µg/mL (DSM 20231 MSSA).
The MIC of `CCCCCCC#Cc1cncc(-c2nnc(SCc3ccc(Cl)cc3)n2C)c1` is reported as over 64 µg/mL (microbial growth, broth dilution; ATCC29213).
`CC[C@H]1OC(=O)[C@H](C)[C@@H](OC(=O)Cc2cccc(Cl)c2)[C@H](C)[C@@H](O[C@@H]2O[C@H](C)C[C@H](N(C)C)[C@H]2O)[C@](C)(OC)C[C@@H](C)C(=O)[C@H](C)[C@@H](O)[C@]1(C)O` has an MIC of 4 µg/mL (BAA-977).
For `COc1ccc(/N=N/C(=S)N2CCCC2)cc1`, the MIC was over 50 µM (microbial growth, broth dilution; ATCCBAA44 MRSA; 24 h).
`CC[C@H]1OC(=O)[C@H](C)[C@@H](OC(=O)Cc2ccc(C(F)(F)F)cc2)[C@H](C)[C@@H](O[C@@H]2O[C@H](C)C[C@H](N(C)C)[C@H]2O)[C@](C)(OC)C[C@@H](C)C(=O)[C@H](C)[C@@H](O)[C@]1(C)O` has an MIC of 4 µg/mL (BAA-977).
The MIC of `O=[N+]([O-])c1c(Br)c(Cl)c2cccnc2c1O` is reported as 2 µg/mL (microbial growth, broth dilution; ATCC29213).
